Assay results pooled from the literature.
Numbered parts are unrelated; each lists some results of a single study. Substitutions count along the parent as printed.
Chain of UniProt P00519 (whole entry, unmodified, looked up): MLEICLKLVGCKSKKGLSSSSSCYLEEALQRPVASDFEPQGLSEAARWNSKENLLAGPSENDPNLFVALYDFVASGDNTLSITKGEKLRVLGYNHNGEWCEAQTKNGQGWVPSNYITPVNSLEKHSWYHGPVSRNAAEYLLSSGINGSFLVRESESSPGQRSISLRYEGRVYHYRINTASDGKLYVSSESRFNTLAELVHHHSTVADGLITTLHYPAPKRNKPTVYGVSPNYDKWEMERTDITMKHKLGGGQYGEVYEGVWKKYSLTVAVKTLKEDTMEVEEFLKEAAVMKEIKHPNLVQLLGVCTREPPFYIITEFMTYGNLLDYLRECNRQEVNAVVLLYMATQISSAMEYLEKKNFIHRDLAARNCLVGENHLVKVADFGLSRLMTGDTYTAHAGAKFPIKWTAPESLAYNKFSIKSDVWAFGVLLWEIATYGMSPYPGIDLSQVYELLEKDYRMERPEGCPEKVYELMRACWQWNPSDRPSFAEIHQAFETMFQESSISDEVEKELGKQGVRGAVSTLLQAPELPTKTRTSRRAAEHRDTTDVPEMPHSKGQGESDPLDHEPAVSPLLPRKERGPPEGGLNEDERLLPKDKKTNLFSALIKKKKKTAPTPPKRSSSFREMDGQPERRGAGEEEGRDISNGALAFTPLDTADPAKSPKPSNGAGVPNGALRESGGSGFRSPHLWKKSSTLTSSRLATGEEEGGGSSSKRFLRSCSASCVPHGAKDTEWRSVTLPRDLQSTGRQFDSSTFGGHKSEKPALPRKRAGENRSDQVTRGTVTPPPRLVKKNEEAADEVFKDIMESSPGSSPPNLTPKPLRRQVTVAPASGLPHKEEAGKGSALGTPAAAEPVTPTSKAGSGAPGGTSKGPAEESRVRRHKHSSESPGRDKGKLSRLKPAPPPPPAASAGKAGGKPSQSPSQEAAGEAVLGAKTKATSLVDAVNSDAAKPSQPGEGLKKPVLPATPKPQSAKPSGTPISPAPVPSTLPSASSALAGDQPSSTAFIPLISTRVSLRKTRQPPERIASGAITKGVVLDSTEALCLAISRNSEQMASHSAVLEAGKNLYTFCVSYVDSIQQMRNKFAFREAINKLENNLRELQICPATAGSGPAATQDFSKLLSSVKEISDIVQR

Block 1 — target: CCNE1, cyclin fold, Cln2 fusion (human); method: yeast growth competition, sequencing; sample: yeast; notes: weak parent motif; baseline: not given; reading: higher = stronger binding
Parent: SLBP docking peptide (human); ARYKRKLLINDFG
Change | normalised enrichment score
ARYKRKLLINDWG [F12W] | 0.188
ARYKRKLLINDAG [F12A] | 0.139
ARYKRKLLNNDFG [I9N] | 0.3
ARYKRCLLINDFG [K6C] | 1.56
ARYCRKLLINDFG [K4C] | -0.234
ARYKHKLLINDFG [R5H] | 0.209
ARYKRKLLPNDFG [I9P] | 0.69
ARYKRKLLINTFG [D11T] | 0.897

Block 2 — method: protein-binding microarray; form: double-stranded DNA, one strand shown; sample: in vitro; tested at: not given; reading: higher = stronger binding
Target: Protein C-ets-1 (ETS1, Homo sapiens, UniProt P14921, residues 1-441, K379A, full length assumed)
Notes: k-mer, scored over probes, only values ≥0.25
Residues (chain): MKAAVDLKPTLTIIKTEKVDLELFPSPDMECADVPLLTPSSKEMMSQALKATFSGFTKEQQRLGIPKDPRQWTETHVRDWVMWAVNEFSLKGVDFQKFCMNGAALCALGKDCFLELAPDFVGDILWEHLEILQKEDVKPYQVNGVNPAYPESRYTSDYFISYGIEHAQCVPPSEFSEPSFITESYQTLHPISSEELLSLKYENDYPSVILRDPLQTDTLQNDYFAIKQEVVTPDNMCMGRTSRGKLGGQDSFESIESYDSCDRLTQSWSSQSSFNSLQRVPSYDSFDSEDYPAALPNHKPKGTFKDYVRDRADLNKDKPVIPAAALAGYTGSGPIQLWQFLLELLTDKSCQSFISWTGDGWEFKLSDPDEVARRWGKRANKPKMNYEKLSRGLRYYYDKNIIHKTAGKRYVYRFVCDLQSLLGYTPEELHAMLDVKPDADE
Sequence | E-score
CGGATATA | 0.347
GTGACGAA | 0.258
TCCCGACA | 0.271
TCCGGACA | 0.252
CGACGGCA | 0.253
CCGGTATC | 0.402
GCCGCGGC | 0.257
GTGTATAA | 0.276

Block 3 — method: competition protein-binding microarray; form: double-stranded DNA, one strand shown; sample: in vitro; tested at: 2 µM; added: Cbf1 competitor, 0.05 µM; reading: higher = stronger binding; all sequences stand within: … GTCTTGATTCGCTTGACGCTGCTG
Target: Phosphate system positive regulatory protein PHO4, full length, GST-tagged (PHO4, Saccharomyces cerevisiae, UniProt P07270, residues 1-312)
Notes: whole 60-bp probe, lowest competitor level
Target sequence (chain): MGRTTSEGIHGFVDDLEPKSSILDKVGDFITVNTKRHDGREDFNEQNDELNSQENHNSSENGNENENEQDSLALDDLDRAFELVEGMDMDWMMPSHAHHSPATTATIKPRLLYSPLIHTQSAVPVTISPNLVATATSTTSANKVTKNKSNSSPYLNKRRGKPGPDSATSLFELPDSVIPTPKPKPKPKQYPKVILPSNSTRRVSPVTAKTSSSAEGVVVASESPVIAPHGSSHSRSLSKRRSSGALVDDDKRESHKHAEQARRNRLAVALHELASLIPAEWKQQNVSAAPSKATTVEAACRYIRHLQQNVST
Sequence | fluorescence intensity [a.u.]
TGCGCAACAACTTTTCACGTGCTATTATGTCTAGAA | 13500
TTAATATGGTGGAGTCAGCTGAGAAGTTTTTTCAAT | 3110
CTTTCCCGATCTTGCTTAGTGGGTGTAGCACATTTG | 4100
TTTTTTGAACTTCACCACGGGCTATTTTCTTCTTAG | 8960
GTCTTGTCTCATTGGATCGTGGGTGTCCCCACTTCA | 8520
TGCGCAACAACTTGGTAGGTGGGTGTATGTCTAGAA | 4770
AAATTACTAAGTTGTCTAGTGGGTGACGCCGTATGA | 3310
CTTTCCCGATCTTGCAATGTGGGTGTAGCACATTTG | 7100

Other studies, line by line
Structure (SMILES) | target | read-out | tested at | endpoint | result
C[C@H](NC(=O)Nc1cc2[nH]ncc2c(CO)n1)c1ccccn1 | Tyrosine-protein kinase ABL1, phosphorylated (ABL1, Homo sapiens, UniProt P00519, F317I) | binding | 1 µM | remaining binding | 100%

Some of these lines once more (block 2):
Sequence | E-score
GCCGCGGC | 0.257
GTGTATAA | 0.276
